Experimental data from different studies.

`C/C=C/C(=O)Nc1ccc(-n2nc3c(=O)[nH]nc(N)c3c2-c2oc3ccc(C)cc3c2C)cc1` has a remaining compound of 92% (BALB/c nude mouse, whole blood; 1 µM, 2 h, 37 °C).
`Cc1cccc(CNC(=O)c2cn(CCNC(=O)c3ccccc3Sc3c([N+](=O)[O-])ncn3C)c3cc4c(cc3c2=O)OCO4)n1` gave a remaining compound of 100% (LC-MS/MS; CD-1 mouse, whole blood; 1 µM, 0.5 h).
`CC[N+]1(C)CCN(c2ccc(NC(=O)c3cccc(C)n3)cc2)CC1` gave a remaining compound of 102% (BALB/c mouse, pooled mouse plasma; 1 µM, 60 min).
`CC[C@H](C)[C@@H]1NC(=O)[C@@](C)(NC(=O)[C@H](CCCNC(=N)N)NC(=O)[C@H](CC(C)C)NC(=O)[C@@H](NC(=O)[C@H](CCC(N)=O)NC(=O)[C@H](CC(C)C)NC(C)=O)[C@@H](C)O)CCCC=CCCC[C@@](C)(C(=O)N[C@@H](CC(C)C)C(=O)N[C@@H](Cc2ccc3ccccc3c2)C(N)=O)NC(=O)[C@H](CCCNC(=N)N)NC(=O)[C@H](CCC(N)=O)NC1=O` gave a remaining compound of 85.8% (LC-MS; BALB/c nude mouse, plasma; 2 µM, 0.75 h).
For `C=CC(=O)Nc1cccc(-n2nc3c(=O)[nH]nc(N)c3c2-c2oc3ccc(C)cc3c2C)c1`, the remaining compound was 47.8% (BALB/c nude mouse, whole blood; 1 µM, 2 h, 37 °C).
For `CCN(CC)CCOC(=O)c1ccc(N)cc1`, the remaining compound was 8.48% (LC-MS; BALB/c nude mouse, plasma; 2 µM, 0.25 h).
`CC(C)[N+](C)(CCOC(=O)C1c2ccccc2Oc2ccccc21)C(C)C` gave a remaining compound of 72.2% (mouse, CD-1, both sexes, whole blood; 5 µM, 30 min).
`NCc1cc2c(cc1F)C(=O)N(C1CCC(=O)NC1=O)C2` (centres unmarked) has a remaining compound of > 95% (male CD-1 mouse, whole blood; 3 h).

Some of these lines once more:
`C/C=C/C(=O)Nc1ccc(-n2nc3c(=O)[nH]nc(N)c3c2-c2oc3ccc(C)cc3c2C)cc1` has a remaining compound of 92% (BALB/c nude mouse, whole blood; 1 µM, 2 h, 37 °C).
